# Measured values collected from several papers.
# Every numbered part comes from another study and shows a few of its results, in no order. Values joined by “and” are separate records of one study, mostly repeats; a detail may differ.
# UniProt P61075, sequence (whole entry, looked up): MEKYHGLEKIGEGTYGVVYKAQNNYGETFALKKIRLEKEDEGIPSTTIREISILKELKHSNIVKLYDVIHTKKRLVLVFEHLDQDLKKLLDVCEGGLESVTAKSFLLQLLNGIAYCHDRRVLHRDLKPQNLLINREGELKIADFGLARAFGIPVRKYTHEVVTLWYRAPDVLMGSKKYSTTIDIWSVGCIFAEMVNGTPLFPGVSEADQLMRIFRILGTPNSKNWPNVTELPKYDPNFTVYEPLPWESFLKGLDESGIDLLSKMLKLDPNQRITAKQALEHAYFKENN
# UniProt P08913, sequence (whole entry, looked up): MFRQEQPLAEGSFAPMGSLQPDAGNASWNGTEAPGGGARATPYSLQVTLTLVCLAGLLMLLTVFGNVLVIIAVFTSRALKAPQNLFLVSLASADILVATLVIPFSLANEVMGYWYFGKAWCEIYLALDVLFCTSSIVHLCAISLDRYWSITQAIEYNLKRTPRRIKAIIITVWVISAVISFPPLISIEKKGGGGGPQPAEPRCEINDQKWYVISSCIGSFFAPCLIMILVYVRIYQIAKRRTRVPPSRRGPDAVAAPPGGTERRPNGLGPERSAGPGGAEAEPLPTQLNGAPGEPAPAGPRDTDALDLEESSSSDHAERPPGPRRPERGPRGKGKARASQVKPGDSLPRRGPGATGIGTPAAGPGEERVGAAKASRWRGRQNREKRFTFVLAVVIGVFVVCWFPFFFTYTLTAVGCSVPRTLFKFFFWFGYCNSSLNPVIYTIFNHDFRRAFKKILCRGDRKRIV
# UniProt P62344, sequence (whole entry, looked up): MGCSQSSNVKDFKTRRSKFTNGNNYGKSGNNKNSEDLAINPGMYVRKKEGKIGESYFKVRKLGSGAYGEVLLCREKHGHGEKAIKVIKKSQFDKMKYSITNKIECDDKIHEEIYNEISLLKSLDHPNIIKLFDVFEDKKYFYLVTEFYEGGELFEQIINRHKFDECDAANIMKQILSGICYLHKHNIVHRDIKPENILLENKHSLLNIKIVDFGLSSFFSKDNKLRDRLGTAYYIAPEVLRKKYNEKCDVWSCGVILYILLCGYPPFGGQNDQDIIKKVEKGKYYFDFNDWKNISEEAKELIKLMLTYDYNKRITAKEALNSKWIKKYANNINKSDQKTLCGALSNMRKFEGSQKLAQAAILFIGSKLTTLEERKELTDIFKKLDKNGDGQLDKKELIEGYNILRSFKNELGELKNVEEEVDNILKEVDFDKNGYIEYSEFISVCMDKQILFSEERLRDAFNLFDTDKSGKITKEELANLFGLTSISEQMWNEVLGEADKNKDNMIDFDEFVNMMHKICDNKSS

# Block 1
# Target: DNA polymerase theta, ATPase domain (POLQ, Homo sapiens, UniProt O75417)
# UniProt O75417, sequence (whole entry, unmodified, looked up): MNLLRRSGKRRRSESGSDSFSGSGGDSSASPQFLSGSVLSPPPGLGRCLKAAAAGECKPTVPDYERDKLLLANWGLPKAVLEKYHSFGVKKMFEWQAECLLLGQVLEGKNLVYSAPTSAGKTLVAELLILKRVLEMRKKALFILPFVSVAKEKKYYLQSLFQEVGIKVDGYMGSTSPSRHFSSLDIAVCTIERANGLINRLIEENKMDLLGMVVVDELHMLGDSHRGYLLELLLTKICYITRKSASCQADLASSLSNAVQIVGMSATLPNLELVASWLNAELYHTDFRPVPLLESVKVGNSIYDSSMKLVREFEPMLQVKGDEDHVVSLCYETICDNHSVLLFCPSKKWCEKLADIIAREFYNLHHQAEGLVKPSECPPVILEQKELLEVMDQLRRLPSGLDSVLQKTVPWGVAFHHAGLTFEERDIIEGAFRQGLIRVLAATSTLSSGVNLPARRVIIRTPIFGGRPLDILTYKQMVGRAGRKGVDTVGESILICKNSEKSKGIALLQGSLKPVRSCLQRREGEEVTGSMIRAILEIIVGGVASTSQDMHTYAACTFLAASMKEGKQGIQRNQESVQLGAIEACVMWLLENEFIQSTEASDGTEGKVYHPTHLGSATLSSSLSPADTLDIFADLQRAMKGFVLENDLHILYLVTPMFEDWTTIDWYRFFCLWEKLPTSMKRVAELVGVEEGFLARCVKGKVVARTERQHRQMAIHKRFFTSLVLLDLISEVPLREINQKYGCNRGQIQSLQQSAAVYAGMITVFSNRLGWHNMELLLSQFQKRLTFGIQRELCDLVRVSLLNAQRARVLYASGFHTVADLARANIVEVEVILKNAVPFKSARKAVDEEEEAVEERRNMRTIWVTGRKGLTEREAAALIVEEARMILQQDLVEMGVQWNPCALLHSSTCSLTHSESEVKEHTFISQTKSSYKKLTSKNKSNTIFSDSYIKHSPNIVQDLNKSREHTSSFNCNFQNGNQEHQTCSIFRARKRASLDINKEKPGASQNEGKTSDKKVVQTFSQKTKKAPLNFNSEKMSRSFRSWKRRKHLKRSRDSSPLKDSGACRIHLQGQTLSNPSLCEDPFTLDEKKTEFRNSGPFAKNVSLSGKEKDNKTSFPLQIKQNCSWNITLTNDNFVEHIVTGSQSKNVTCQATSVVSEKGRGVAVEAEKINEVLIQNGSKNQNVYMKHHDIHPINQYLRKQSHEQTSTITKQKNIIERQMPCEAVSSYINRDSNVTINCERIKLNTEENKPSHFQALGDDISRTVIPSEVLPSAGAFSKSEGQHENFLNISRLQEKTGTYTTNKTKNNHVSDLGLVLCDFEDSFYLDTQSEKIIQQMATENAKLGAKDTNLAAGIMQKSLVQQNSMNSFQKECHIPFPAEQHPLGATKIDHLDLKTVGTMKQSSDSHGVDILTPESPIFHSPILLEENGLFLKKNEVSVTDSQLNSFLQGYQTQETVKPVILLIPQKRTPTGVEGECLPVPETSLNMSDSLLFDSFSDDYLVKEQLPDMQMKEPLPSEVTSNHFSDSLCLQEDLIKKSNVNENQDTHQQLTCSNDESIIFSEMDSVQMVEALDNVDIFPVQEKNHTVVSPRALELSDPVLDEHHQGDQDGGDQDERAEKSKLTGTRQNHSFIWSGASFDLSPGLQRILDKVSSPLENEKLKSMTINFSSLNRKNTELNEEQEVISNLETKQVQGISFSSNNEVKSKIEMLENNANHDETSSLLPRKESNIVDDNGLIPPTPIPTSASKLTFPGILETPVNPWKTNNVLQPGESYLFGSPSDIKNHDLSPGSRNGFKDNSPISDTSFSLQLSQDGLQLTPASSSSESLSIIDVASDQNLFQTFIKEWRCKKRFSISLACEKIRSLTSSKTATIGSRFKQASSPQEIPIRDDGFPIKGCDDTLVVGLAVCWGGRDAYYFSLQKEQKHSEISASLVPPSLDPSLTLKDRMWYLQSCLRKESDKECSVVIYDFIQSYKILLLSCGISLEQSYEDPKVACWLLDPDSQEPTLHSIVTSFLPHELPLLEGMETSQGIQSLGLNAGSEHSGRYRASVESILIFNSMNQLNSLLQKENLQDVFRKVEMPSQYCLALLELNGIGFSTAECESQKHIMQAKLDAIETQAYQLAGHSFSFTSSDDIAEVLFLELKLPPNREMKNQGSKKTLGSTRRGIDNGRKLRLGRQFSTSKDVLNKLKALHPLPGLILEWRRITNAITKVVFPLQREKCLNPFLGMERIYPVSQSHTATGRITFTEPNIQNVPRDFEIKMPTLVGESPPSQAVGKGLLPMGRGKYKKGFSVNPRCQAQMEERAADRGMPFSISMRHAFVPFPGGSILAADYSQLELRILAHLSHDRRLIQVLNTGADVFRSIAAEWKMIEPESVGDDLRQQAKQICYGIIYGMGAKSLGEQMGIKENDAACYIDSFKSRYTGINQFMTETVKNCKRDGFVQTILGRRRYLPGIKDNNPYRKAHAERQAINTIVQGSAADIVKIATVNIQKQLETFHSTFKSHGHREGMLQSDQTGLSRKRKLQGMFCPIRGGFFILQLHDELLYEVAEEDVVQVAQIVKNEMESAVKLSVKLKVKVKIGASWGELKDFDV
# Effect on: enzyme activity
# Action: inhibitor
# Concentration: 77 µM
Structure (SMILES),remaining activity [%]
O=c1[nH]c2ccccc2n1C1CCN(Cc2ccc(-c3[nH]c4cc5ncnc5cc4nc3-c3ccccc3)cc2)CC1,76.6
O=C1Nc2ccc3ncsc3c2/C1=C/c1cnc[nH]1,111
C=CCN1CC[C@]23c4c5ccc(O)c4O[C@H]2C(=O)CC[C@@]3(O)[C@H]1C5,101
NC1CCc2cc(O)c(O)cc2C1 (centres unmarked),112
Fc1cc(F)c2c(c1)[C@H]1C=CC[C@H]1C(c1cccnc1)N2 (some centres unmarked),110

# Block 2
# Cell line: mouse MPNST tumor cells
# Method: high-content immunofluorescence imaging
# Item: nuclear SOX9
# Concentration: 10 µM
# Time: 12 h
# Setting: mean of 2 replicates
# Baseline: DMSO control
# Direction: higher = more nuclear SOX9
SMILES,nuclear SOX9 intensity
CC(C)c1cccc(C(C)C)c1O,79.6 % of DMSO
CN(C)[C@@H]1C(=O)C(C(N)=O)=C(O)[C@@]2(O)C(=O)C3=C(O)c4c(O)cccc4[C@@](C)(O)[C@H]3[C@H](O)[C@@H]12,118 % of DMSO
C[N+]1(C)[C@@H]2CC[C@H]1C[C@@H](OC(=O)C(CO)c1ccccc1)C2 (some centres unmarked),108 % of DMSO
CC(O)(CS(=O)(=O)c1ccc(F)cc1)C(=O)Nc1ccc(C#N)c(C(F)(F)F)c1 (centres unmarked),116 % of DMSO and 82.7 % of DMSO and 104 % of DMSO

# Further values, each from its own experiment
# pknB: Serine/threonine-protein kinase PknB (pknB, Mycobacterium tuberculosis, UniProt P9WI81)
# UniProt P9WI81, sequence (whole entry, looked up): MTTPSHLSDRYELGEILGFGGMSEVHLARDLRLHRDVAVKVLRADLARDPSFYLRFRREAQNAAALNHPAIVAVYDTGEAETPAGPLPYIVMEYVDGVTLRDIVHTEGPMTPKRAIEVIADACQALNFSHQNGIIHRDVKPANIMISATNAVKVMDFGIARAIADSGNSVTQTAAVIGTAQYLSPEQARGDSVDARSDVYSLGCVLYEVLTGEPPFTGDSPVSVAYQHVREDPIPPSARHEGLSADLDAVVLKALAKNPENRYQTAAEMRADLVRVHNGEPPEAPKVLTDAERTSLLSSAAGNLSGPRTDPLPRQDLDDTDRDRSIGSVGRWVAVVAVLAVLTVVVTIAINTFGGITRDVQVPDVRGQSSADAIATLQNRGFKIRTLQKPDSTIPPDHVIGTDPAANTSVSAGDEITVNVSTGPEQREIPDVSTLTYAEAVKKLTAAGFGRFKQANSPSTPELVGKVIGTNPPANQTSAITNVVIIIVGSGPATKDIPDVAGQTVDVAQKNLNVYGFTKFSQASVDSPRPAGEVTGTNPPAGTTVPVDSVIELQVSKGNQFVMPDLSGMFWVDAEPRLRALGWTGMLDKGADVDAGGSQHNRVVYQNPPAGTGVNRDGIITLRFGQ
Structure (SMILES),target,assay,setting,endpoint,result
CNCc1ccccc1-c1csc([C@H](C)Nc2nc(C)nc3cc(OC)c(OC)cc23)c1,"CRK2 (Plasmodium falciparum, UniProt P61075)","cell-free assay, competition with immobilised ligand",1 µM,remaining binding,71%
C=CC(=O)N1CCC([C@@H]2CCNc3c(C(N)=O)c(-c4ccc(Oc5ccccc5)cc4)nn32)CC1,pknB,"enzyme activity, inhibitor",1 µM,inhibition,0%
CNC(=O)c1cc(C(=O)NC2CC2)cn(Cc2ccccc2)c1=O,"ADRA2A (Homo sapiens, UniProt P08913)","binding, radioligand binding",10 µM,inhibition,-4.53%
CNC(=O)c1ccc(Nc2ncc(C(F)(F)F)c(NCc3nccnc3N(C)S(C)(=O)=O)n2)cc1,pknB,"cell-free assay, competition with immobilised ligand",0.1 µM,remaining binding,69%
COc1cc(-c2cn(C3CCc4c(F)cccc4N(CC(F)(F)F)C3=O)nn2)ccc1-n1cnc(C)c1 (centres unmarked),"CDPK1 (Plasmodium falciparum, UniProt P62344)","cell-free assay, competition with immobilised ligand",1 µM,remaining binding,100%

# Excerpt of the above (block 2):
SMILES,nuclear SOX9 intensity
CN(C)[C@@H]1C(=O)C(C(N)=O)=C(O)[C@@]2(O)C(=O)C3=C(O)c4c(O)cccc4[C@@](C)(O)[C@H]3[C@H](O)[C@@H]12,118 % of DMSO
